Assay results from different studies.
Numbered parts are unrelated; each lists some results of a single study. Positions count from the first letter of the parent shown.

Sample 1 — target: CCNE2, cyclin fold, Cln2 fusion (human); technique: yeast growth competition, sequencing; sample: yeast; setting: weak parent motif; relative to: not given; reading: higher = stronger binding
Starting sequence: AKAP12 docking peptide (human); GSPLKKLFTSTGL; partner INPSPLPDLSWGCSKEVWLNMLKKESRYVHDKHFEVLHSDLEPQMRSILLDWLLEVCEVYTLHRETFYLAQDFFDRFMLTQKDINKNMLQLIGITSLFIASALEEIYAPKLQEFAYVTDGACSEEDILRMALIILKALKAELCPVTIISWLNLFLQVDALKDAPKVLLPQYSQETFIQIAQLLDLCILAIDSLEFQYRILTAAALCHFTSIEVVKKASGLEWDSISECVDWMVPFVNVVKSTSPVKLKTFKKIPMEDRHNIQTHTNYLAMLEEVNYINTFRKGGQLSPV
| Substitution | normalised enrichment score |
| --- | --- |
| GSALKKLFTSTGL [P3A] | 0.963 |
| GSPLKKLFTSTGA [L13A] | 0.0721 |
| GAPLKKLFTSTGL [S2A] | 1.16 |
| GSPLKKLFASTGL [T9A] | 0.52 |
| GSPLRKLFTSTGL [K5R] | 0.33 |
| GSPLKKLFTSAGL [T11A] | 0.0459 |
| GSPLKKAFTSTGL [L7A] | -0.269 |
| GSPAKKLFTSTGL [L4A] | -0.0125 |
| GSPLRKLLTSTGL [K5R F8L] | 0.549 |
| GSPLAKAFTSTGL [K5A L7A] | -0.252 |

Sample 2 — technique: DHFR PCA, dose-response; sample: yeast; added: (+)-ABA, dose series; reading: lower = more sensitive
Target: ABI1, truncated, D143A, DHFR fusion (Arabidopsis thaliana, UniProt P49597)
Setting: Hill fit, not affinity, not high confidence
Starting sequence: PYL1, truncated, DHFR fusion (Arabidopsis thaliana, UniProt Q8VZS8); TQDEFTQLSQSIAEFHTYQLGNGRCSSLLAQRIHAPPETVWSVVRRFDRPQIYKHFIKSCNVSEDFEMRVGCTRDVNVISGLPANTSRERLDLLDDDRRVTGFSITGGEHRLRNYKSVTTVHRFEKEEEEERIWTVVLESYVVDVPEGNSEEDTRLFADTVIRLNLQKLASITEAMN
| Substitution | ABA EC50 |
| --- | --- |
| Y141I | 6.65 µM |
| V161Q | 0.685 µM |
| V40H | 2.52 µM |
| T173D | 742 µM |
| V118D | 1390 µM |
| S80F | 115 µM |
| L169G | 104 µM |
| Y115H | 507 µM |
| G102W | 1.32 µM |
| D48L | 692 µM |
| F157K | 4.46 µM |
| S80Y | 182 µM |
| C25N | 508 µM |
| T119E | 775 µM |
| D48I | 585 µM |
| L112W | 0.449 µM |
| F47I | 9.19 µM |
| L166E | 2.5 µM |
| V161M | 208 µM |
| L91I | 264 µM |
| Y53E | 2.37 µM |
| R99P | 1070 µM |
| K54I | 3.92 µM |
| R45Y | 1510 µM |
| P146Y | 1060 µM |

Sample 3 — target: CREBRF, bZIP domain (human); technique: DHFR protein complementation; sample: yeast; relative to: wild-type JUN-FOS pair; reading: higher = stronger binding
Setting: single substitutions, most at no-binding floor
Starting sequence: JUN, bZIP domain (human); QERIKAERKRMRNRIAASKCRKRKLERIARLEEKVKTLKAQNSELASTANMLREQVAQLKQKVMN; partner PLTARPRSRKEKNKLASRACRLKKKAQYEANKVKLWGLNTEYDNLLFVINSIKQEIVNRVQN
| Substitution | binding fitness |
| --- | --- |
| Q55N | -1.47 natural log |
| L52C | -1.55 natural log |
| L52Q | -1.5 natural log |
| E44P | -1.52 natural log |
| T48L | -1.38 natural log |
| Q55V | -1.53 natural log |
| L52G | -1.57 natural log |
| Q41P | -1.48 natural log |
| S47N | -1.45 natural log |
| I28N | -1.44 natural log |
| V56P | -1.5 natural log |
| K34R | -1.39 natural log |
| A49Q | -1.41 natural log |
| T48C | -1.56 natural log |
| L52R | -1.49 natural log |
| V35E | -1.5 natural log |
| L38N | -1.54 natural log |
| L52H | -1.46 natural log |
| K36W | -1.55 natural log |
| L45N | -1.51 natural log |
| K36P | -1.55 natural log |
| L31Q | -1.54 natural log |
| I28K | -1.47 natural log |
| R30A | -1.17 natural log |
| S43A | -1.41 natural log |

Sample 4 — technique: protein-binding microarray; form: double-stranded DNA, one strand shown; sample: in vitro; concentration: 250 nM; setting: 60-bp whole probe; added: salmon DNA 0.4 mg/ml; relative to: random background probes; reading: higher = stronger binding; all sequences stand within: GCCTAGCAC … GTCTTGATTCGCTTGACGCTGCTG
Target: Interferon regulatory factor 7, full length, phosphomimetic (IRF7, Homo sapiens, UniProt Q92985, residues 1-503, S101K/S471D/S472D/S475D/S476D/S477D/S483D/S484D/S487D)
Target sequence (chain): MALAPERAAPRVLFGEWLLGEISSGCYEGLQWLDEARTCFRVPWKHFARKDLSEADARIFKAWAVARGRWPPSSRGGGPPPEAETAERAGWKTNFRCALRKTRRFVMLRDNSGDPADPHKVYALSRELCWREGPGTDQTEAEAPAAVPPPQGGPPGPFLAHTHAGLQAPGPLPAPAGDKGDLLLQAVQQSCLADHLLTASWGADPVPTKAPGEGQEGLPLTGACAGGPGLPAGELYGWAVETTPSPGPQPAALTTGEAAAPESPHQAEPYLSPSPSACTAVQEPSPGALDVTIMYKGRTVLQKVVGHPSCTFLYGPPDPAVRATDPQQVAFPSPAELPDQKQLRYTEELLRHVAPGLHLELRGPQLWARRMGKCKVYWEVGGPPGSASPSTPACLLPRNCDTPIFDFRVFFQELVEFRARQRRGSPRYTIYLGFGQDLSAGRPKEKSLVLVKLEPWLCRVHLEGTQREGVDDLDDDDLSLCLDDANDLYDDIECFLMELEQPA
| Strand | log fluorescence [z-score] |
| --- | --- |
| TCAGATTACATATATGTTACTGTGCTA | 0.423 |
| TTAGATATCAATATCGATTAGTGCTAG | 0.304 |
| AAGGTTATCCATCTCAAGTAGTGCTAG | -0.0936 |
| TTTCCTTTACATTCCCCATTGTGCTAG | 2.63 |
| GACGATATCCTACTGCTGACGTGCTAG | -0.0783 |
| TTAGATATCACTCTCGATTAGTGCTAG | 0.353 |
| TCACTTTTTGCACTCTCACTGTGCTAG | 0.739 |
| TCAGTTTTGAGCTCTGTCTGGGTGCTA | 0.0151 |
| TCATGTATTTGTCCCTAACTGTGCTAG | 0.7 |
| TTAGGTATCCTTCCCCTTTAGTGCTAG | 0.535 |
| CCAATTCTCTTTTCACTTTCGTGCTAG | 2.66 |
| AACGATATCAGTTTCGAGACGTGCTAG | 4.18 |
| TTAGGACTGGGTCTCGGTCAGTGCTAG | 0.192 |
| TTAGATATCGGACTGGGTTAGTGCTAG | 0.194 |
| AACGGTATCGGTTTCGGGACGTGCTAG | 7.24 |
| CAGCCTCTGCATTCCCTCAGGTGCTAG | -0.301 |
| TGAGATCTCAGTATCGATTAGTGCTAG | 0.624 |
| GACGATTTCGGCTATCGAGACGTGCTA | -0.0383 |
| GGTCTTTCCGATTAGTCCCCGTGCTAG | 1.58 |
| AAACAAGTCAATGGCCTTTCGTGCTAG | -0.409 |
| GACGCACTGGGACTGGGGACGTGCTAG | -0.178 |
| TTAGGTACCGGGACTGGGTTAGTGCTA | 0.169 |
| TCAAATACAAGTTTCTCACTGTGCTAG | 0.726 |
| GTAGAACTGGGGTTTCGATTAGTGCTA | 5.64 |
| TTAGGTCTCGGTCTCGGTGAGTGCTAG | 1.23 |

Sample 5 — technique: RNA Bind-n-Seq; form: RNA; sample: in vitro; concentration: 365 nM; relative to: no-protein control; reading: higher = stronger binding
Target: RNA binding protein fox-1 homolog 2, RRM domain, GST-SBP tag (RBFOX2, Homo sapiens, UniProt O43251-10, residues 100-194)
Setting: natural RNA segment, single round, ends assumed
All sequences stand within: GGGAGUUCUACAGUCCGACGAUC … UGGAAUUCUCGGGUGCCAA
Construct (chain): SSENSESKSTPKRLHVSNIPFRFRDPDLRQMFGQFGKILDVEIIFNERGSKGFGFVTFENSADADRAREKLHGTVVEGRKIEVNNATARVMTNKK
| Strand | RBNS enrichment (R) |
| --- | --- |
| UUCAGACACACGAGUCCUCGGAACUGCCUGGCUGCCUGUCACGCAUGCUCUGAGUCAGAACACACCAACGCUCUGCUGUGGCUCCUAGGGAAGCAUUCAUGGUCCUCUGU | 6.25 |
| CAAUAAACAAAGAAGCGAAGAUAAGAAAGAAGGCCUCAUAUCCAAUUACCUCACUCAUUCACAUGUGAGCGACACGCAGACAUCCGCGAGGGCCAGCGUCACCAGACCAG | 0.314 |
| AAGCCCCCAGUACCGGUCAGUUGAUUCUGUGGGCUGUAAACUGUGAAGUAUGGGUUCUCUCAGAGGAAAGGUUAUGAAAUUCUGUUGUGUGCAUAGUAAGACUGCCUGGC | 1.06 |
| AUUUCACCACUGGAACACAGGUGUGCUGCUUGUUAGCAAGCAGAGCAAUAAAGAUGUGCUGGAUGUCUUGUUAAUGUUUUCUUUUAAAAAGAAGCGUCAGUGUCAGCCGG | 0.278 |
| GGCAUGUAUCCUGGCUGAAGCGCUGCAAUCUUACACUAGCCACAGGGUACUGUUUUGAGCCAAAGGCUGAUACUUAAUUGAAGAGGGAAAAUGCAGAUUUGGGGACAAAG | 0.849 |
| UUGUGAACUGAGUUUGAAACAUGCCUGCUUUGGAGAGACUGGGGCAGUGAACACCCCAGCAGCCUUUCAGCAAAUUGGCUUUGGACAUGGACCCUUCUCAGCCUGUACCA | 0.683 |
| AUGAUUUUGUGACUUCUGGUCAGUCGGUCAGCAGGCCGGGAUGUAUCAUUACCCUGAGCGAGCUGGAAGGGUGGUCACCCUGCACCUAGCCAGCCAUGCAGGCUCCAUCA | 0.391 |
| UUGUUGAAUUUUGUCAAAGGCUUUUUCUGCAUCUAUUGAGAUAAUCAUGUGUUUUUUGUCUUUGGCUCUGUUUAUAUGCUGGAUUACAUUCAUUGAUUUGCGUAUAUUGA | 0.743 |
| CAUUACUGUGGGUGGGGUUCCCCUGGGCCAAACAGUGAUUUGUCUCCCUCAAUGUGUACACCGCUCCGCUCCCACCACCGCUACCACAAGGACCCCCGGGGCUGCAGCCU | 0.406 |
| CUGUGUGUGCUCUGGACACUGUACAUUUGUACCCAACCAAGUGGGUCAAGUCGGAGAGGGACUCUUCAGUAUGGAGGCAGCCUGUGGAGUGCAGCGCCUUUGAGGCUCUG | 0.758 |
| UAAAUUAUUGAGGGGACUAGGCUAUAUGCAUUUGCCUUCAUCCACCCAUGUUUAUUAAGAAUCAUUGUGCUUAAUAAUACCAAGACUAAGCACCAUAACCAAGAAAUACU | 0.55 |
| CUUCCUCAGGGACGUACAGGCUGUCUGCUGAGCAGCCCCCACUCUUCUUUAUGGCAACAGGAGGAGAAAGCAAGGCCCAGGAGAGGAGGCCUCCAAGGCAGAAGCUAUUG | 0.309 |

Other studies, line by line
| Substance | target | test | system | setting | scale | endpoint | result |
| --- | --- | --- | --- | --- | --- | --- | --- |
| PhoQ, residues 284 288 289 292 302 303 AGGCYF | PhoP, residues 12 14 15 18 19 TQAIL (Escherichia coli, UniProt P23836) | Sort-seq, refers to: YFP reporter | E. coli | PhoQ-PhoP variant library, added: 10 µM Mg2+ | relative to: high Mg2+ state, higher = stronger signaling | fold induction | 2.74 |
